Results of several laboratories.
A part holds a random share of what one study measured. Positions count from the first letter of the parent shown.

Study 1 — method: protein binding microarray; molecule type: double-stranded DNA, one strand shown; matrix: in vitro; tested at: not given; reference: not given; reading: higher = stronger binding; measurement: E-score
Target: Histone acetyltransferase KAT6A, winged helix 1, GST fusion (KAT6A, Homo sapiens, UniProt Q92794, residues 1-85)
Notes: 8-mer, flanks averaged, mean of 2 arrays, mostly near background
Construct (chain): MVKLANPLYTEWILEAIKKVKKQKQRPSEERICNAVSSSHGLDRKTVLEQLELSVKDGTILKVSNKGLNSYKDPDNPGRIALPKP
CAATATTC: -0.168
AGTTCGCG: 0.214
CGTGAGAG: 0.00822
GATCCACC: 0.036
GTGAGGAA: -0.093
CTGGTAAG: -0.204
AAAATCTG: -0.25
GCTAAAAA: 0.0176

Study 2 — target: Sox, HMG box (Pigoraptor chileana); method: Spec-seq; molecule type: double-stranded DNA, one strand shown; matrix: in vitro; tested at: not given; notes: whole probe, mean of replicates; reference: not given; reading: lower = stronger binding; measurement: relative binding energy; all sequences stand within: GAGTCGTCTCGTCAGCAC … CCGTAGAGCACTCAGGTC
Construct (chain): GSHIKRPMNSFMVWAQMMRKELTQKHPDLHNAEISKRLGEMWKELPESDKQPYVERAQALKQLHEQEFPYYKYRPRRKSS
ATTAGTT: -0.135 ln ratio
GATAGTT: -0.191 ln ratio
CATCTTT: 0.404 ln ratio
CACCGTT: 0.243 ln ratio
CATCCTC: 0.655 ln ratio
GGCAGTT: 0.855 ln ratio
CATGTGT: 0.429 ln ratio
CATCCCA: 0.76 ln ratio

Mixed results
P1: PafA, mature enzyme, eGFP fusion (Elizabethkingia meningoseptica, UniProt Q9KJX5); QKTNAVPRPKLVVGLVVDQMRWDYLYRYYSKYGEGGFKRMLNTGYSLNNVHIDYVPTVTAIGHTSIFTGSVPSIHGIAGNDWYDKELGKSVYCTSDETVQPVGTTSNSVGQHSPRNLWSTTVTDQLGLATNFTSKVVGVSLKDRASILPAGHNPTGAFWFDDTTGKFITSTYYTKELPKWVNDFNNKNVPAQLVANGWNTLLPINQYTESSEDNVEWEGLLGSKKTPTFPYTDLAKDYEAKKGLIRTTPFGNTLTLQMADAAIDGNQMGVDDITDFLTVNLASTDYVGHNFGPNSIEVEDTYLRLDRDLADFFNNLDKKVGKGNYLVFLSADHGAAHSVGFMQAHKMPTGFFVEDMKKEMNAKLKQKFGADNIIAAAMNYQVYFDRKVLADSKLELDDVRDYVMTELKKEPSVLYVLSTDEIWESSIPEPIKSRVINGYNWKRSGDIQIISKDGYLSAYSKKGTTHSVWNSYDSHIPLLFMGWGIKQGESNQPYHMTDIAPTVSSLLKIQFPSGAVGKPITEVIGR
NSL1 (Homo sapiens, UniProt Q96IY1) — interaction screen (DSN1 (Homo sapiens, UniProt Q9H410); cross-linking MS; hits only): cross-linked
P1 T278V — oxyanion analog dissociation constant (tungstate, free oxyanion; microfluidic competitive inhibition; in vitro, cell-free expressed; not given, derived from inhibition constants, unchanged parent 2230 nM; lower = stronger binding): 1400 nM
FLOT1 (Homo sapiens, UniProt O75955) — interaction screen (FLOT2 (Homo sapiens, UniProt Q14254); cross-linking MS; hits only): cross-linked
NAP1L1 (Homo sapiens, UniProt P55209) — interaction screen (NAP1L4 (Homo sapiens, UniProt Q99733); cross-linking MS; hits only): cross-linked
ABI2 (Homo sapiens, UniProt Q9NYB9) — interaction screen (NCKAP1 (Homo sapiens, UniProt Q9Y2A7); cross-linking MS; hits only): cross-linked

Repeated from above (study 2):
ATTAGTT: -0.135 ln ratio
GATAGTT: -0.191 ln ratio
